# Measured values pooled from the literature.
# Protocols differ between the studies behind these lines. Values joined by “and” are separate records of one study, mostly repeats; a detail may differ. ± gives the spread as reported.
# UCHL1: Ubiquitin carboxyl-terminal hydrolase isozyme L1 (UCHL1, Homo sapiens, UniProt P09936)
# UniProt P09936, sequence (whole entry, looked up): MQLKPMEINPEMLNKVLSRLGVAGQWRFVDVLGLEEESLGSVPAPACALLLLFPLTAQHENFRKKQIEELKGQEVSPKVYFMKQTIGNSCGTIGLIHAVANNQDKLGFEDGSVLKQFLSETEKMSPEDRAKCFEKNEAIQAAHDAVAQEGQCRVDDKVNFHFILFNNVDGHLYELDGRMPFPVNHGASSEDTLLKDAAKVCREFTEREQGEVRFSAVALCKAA
SMILES,tested on,assay,test system,setting,endpoint,result
N#Cc1ccc(C[C@H](Nc2nnc(-c3ccc(Br)cc3)o2)C(=O)N2CCc3ccccc32)cc1,human neutrophils,"calcium mobilization, desensitization",,with: standard agonist,IC50,7400 ± 2500 nM
COc1cc(C(=O)NS(=O)(=O)c2ccccc2C)ccc1Cc1cn(C)c2ccc(NC(=O)OC3CCCC3)cc12,HCT116 wild-type cells,"native VRAC current, inhibitor, whole-cell patch clamp",,"pH 7.4, at +100 mV",IC50,13500 nM
C[C@H](Nc1ccc2c(c1)OCCn1cc(N3C(=O)OC[C@H]3C(F)F)nc1-2)C(N)=O,"NCI-H1993 (PIK3CA WT, KRAS WT)","basal AKT phosphorylation, HTRF, refers to: phospho-AKT",,4 h,IC50,21 ± 6.6 nM
N#CC(=Cc1cc(F)ccc1F)C(=O)Nc1ccc(F)cc1,UCHL1,"covalent, intact protein LC-MS",,12.5 µM,labelling,23.4%
NS(=O)(=O)OC[C@@H]1C[C@@H](n2ccc3c(N[C@H]4CCc5ccccc54)ncnc32)C[C@@H]1O,CHP-212 parental,"cell viability, SRB",,,IC50,454 nM and 462 nM and 512 nM
Cc1[nH]c(/C=C2\C(=O)Nc3ccc(S(=O)(=O)N(C)c4cccc(Cl)c4)cc32)c(C)c1C(=O)N1CCN(C)CC1,Rh36 (embryonal rhabdomyosarcoma),cell growth,,3 days,IC50,4320 ± 1180 nM
C[C@@H]1CN(C(=O)c2ccc(NC(=O)c3cc(O[C@H](C)c4c(Cl)ccc(F)c4Cl)c(N)nn3)cc2)C[C@H](C)N1,Ba/F3 EML4-ALK v1,cell viability,,,IC50,112 nM
N#Cc1ccc(C[C@@H](Nc2ncc(-c3ccc(F)cc3)o2)C(=O)N2CCc3ccccc32)cc1,human neutrophils,"calcium mobilization, desensitization",,with: standard agonist,IC50,> 50000 nM
O=C(CCl)Nc1nnc(SCc2ccccc2)s1,UCHL1,"covalent, intact protein LC-MS",,12.5 µM,labelling,30.9%
COc1cc(O)cc(/C=C/c2cccc(O)c2OC)c1,T47D breast cancer,"cell viability, MTT",DMEM with 10% FBS,48 h,IC50,> 200000 nM
NC(=O)NOCCCCCCCCCC[P+](c1ccccc1)(c1ccccc1)c1ccccc1,mouse myeloid-derived suppressor cells,"suppressive neutrophil differentiation, flow cytometry",,,IC50,> 20000 nM
CCCCN1C[C@H](O)[C@@H](O)[C@@H](O)[C@H]1CO,sample BB patient fibroblasts,"Gb3 level lowering, LC-MS/MS, refers to: Gb3 d18:1/16:0",,216 h,IC50,11000 nM
C[C@H]1Oc2cc(cnc2N)-c2c(nn(C)c2C#N)CN(C)C(=O)c2ccc(F)cc21,Ba/F3 EML4-ALK variant 1,cell viability,,,IC50,3.5 nM
C=CC(=O)c1cccnc1Nc1cccc(C(F)(F)F)c1,HEK293A LATS1/2 double knockout,"TEAD reporter gene, GTIIC luciferase",,24 h,IC50,127000 nM
C[C@H](Nc1ccc2c(c1)OCCn1cc(N3C(=O)OC[C@H]3C(F)F)nc1-2)C(N)=O,MDA-MB-453,"growth rate inhibition, CellTiter-Glo",,120 h,IC50,54.4 nM
N#Cc1ccc(C[C@H](NC(=O)c2cc3ccc(F)cc3[nH]2)C(=O)N2CCc3ccccc32)cc1,human neutrophils,"calcium mobilization, desensitization",,with: standard agonist,IC50,> 50000 nM
CCC(=O)N1CCC(COCC(=O)N2CCN(c3nc(-c4cnc(N)nc4C(F)F)nc(N4CCOC[C@@H]4C)n3)CC2)CC1,MDA-MB-453,"western blot, refers to: phospho-PKB/Akt Ser473",,2 h,IC50,35.6 nM
C=CC(=O)N1CCC[C@@H](n2nc(-c3ccc(Oc4ccccc4)cc3)c3c(N)ncnc32)C1,"washed human platelets, healthy donors","ATP secretion, inhibitor, luminescence",,with: CRP 10 µg/mL,IC50,250 nM
COc1cccc2c1C(=O)c1c(O)c3c(c(O)c1C2=O)C[C@@](O)(C(=O)CO)C[C@@H]3O[C@H]1C[C@H](N)[C@H](O)[C@H](C)O1,CHP-212 parental,"cell viability, SRB",,mean of 3 runs,IC50,46.7 nM
O=c1c(O[C@@H]2O[C@H](CO)[C@@H](O)[C@H](O)[C@H]2O)c(-c2ccc(O)cc2)oc2cc(O)cc(O)c12,MDA-MB-231 breast cancer,"cell viability, MTT",DMEM with 10% FBS,48 h,IC50,> 200000 nM
CC#CC(=O)N1CCC[C@H]1c1nc(-c2ccc(C(=O)Nc3ccccn3)cc2)c2c(N)nccn12,"washed human platelets, healthy donors","platelet aggregation, inhibitor, light transmission aggregometry",,"5 min preincubation, with: CRP 10 µg/mL",IC50,21200 nM
O=c1c(O[C@@H]2O[C@H](CO)[C@@H](O)[C@H](O)[C@H]2O)c(-c2ccc(O)c(O)c2)oc2cc(O)cc(O)c12,SV-HUC-1,"cell growth, CellTiter-Glo",,72 h,IC50,12600 nM
CC1(C)CCC(CN2CCN(c3ccc(C(=O)NS(=O)(=O)c4ccc(NCC5CCOCC5)c([N+](=O)[O-])c4)c(Oc4cnc5[nH]ccc5c4)c3)CC2)=C(c2ccc(Cl)cc2)C1,CD56+ NK cells from healthy blood,"cell viability, high-throughput flow cytometry",,,IC50,132 nM
CC(C)C[C@H](NC(=O)[C@H](Cc1ccccc1)NC(=O)c1cnccn1)B(O)O,CHP-212 parental,"cell viability, SRB",,,IC50,4730 nM and 4100 nM and 6950 nM
C=CC(=O)Nc1cc(Nc2nccc(-c3cn(C)c4ccccc34)n2)c(OC)cc1N(C)CCN(C)C,Ba/F3 EGFR V769_D770insASV,"cell growth, CellTiter-Glo",,72 h,IC50,39.4 ± 8.56 nM
O=C1CCC(N2Cc3c(C#CC4CCN(C(=O)[C@H]5CC[C@H](NC(=O)[C@H]6NC7(CCCCC7)[C@]7(C(=O)Nc8cc(Cl)ccc87)[C@H]6c6cccc(Cl)c6F)CC5)CC4)cccc3C2=O)C(=O)N1 (some centres unmarked),RS4;11/MIR2,"cell growth, WST-8",,4 days,IC50,> 1000 nM
COC(=O)N[C@@H](C)CNc1nccc(-c2cn(C(C)C)nc2-c2cc(Cl)cc(NS(C)(=O)=O)c2F)n1,primary keratinocytes,"ERK phosphorylation, Western blot",,1 h,IC50,9770 nM
C[C@H](Nc1ccc2c(c1)OCCn1cc(N3C(=O)OC[C@H]3C(F)F)nc1-2)C(N)=O,MDA-MB-453,"western blot, refers to: phospho-S6 Ser235/Ser236",,2 h,IC50,> 3000 nM
N#Cc1ccc(C[C@@H](Nc2nnc(-c3ccc(F)cc3)s2)C(=O)N2CCc3ccccc32)cc1,human neutrophils,"calcium mobilization, desensitization",,with: standard agonist,IC50,> 50000 nM
Cc1cc(Nc2ncc(Cl)c(Nc3ccccc3S(=O)(=O)C(C)C)n2)c(OC(C)C)cc1C1CCNCC1,NCI-H2228 (EML4-ALK variant 3),cell viability,,,IC50,52 nM
N#Cc1ccc(C[C@@H](NC(=O)c2cc3ccccc3[nH]2)C(=O)N2CCc3ccccc32)cc1,human neutrophils,"calcium mobilization, desensitization",,with: standard agonist,IC50,> 50000 nM
Cc1nn(-c2nc3c(F)cc(F)cc3s2)c(O)c1C(c1ccc(C(F)(F)F)cc1)c1c(C)nn(-c2nc3c(F)cc(F)cc3s2)c1O,RAW-ISG (mouse),"IFN reporter gene, inhibitor, luciferase reporter",,with: HT-DNA,IC50,2670 nM
N#Cc1c(Oc2ccc(F)c(NC(=O)Cc3cccc(C(F)(F)F)c3)c2)ccc2nc(NC(=O)C3CC3)sc12,primary keratinocytes,"ERK phosphorylation, inhibitor, Western blot, refers to: p-ERK/total ERK",,1 h,IC50,6760 nM
Cc1c(C(=O)O)ccc2c3n(nc12)[C@@H]1[C@H](C3)N(CC2CC2)[C@@]2(C(=O)Nc3cc(Cl)ccc32)[C@H]1c1cccc(Cl)c1F,well-differentiated liposarcoma cells,alamarBlue,,unbound concentration,IC50,0.24 nM
CCc1oc2ccccc2c1C(=O)c1cc(Br)c(O)c(Br)c1,HEK-293T cells expressing URAT1,"urate uptake, inhibitor",,"30-60 min, 37 °C, with: 10 µM [14C]-urate",IC50,21.5 nM
N#Cc1ccc(C[C@H](NC(=O)c2cc3cc([N+](=O)[O-])ccc3[nH]2)C(=O)N2CCc3ccccc32)cc1,human neutrophils,"calcium mobilization, desensitization",,with: standard agonist,IC50,> 50000 nM
CC(=O)O[C@H]1C(=O)[C@@]2(C)[C@H]([C@H](OC(=O)c3ccccc3)[C@]3(O)C[C@H](OC(=O)[C@H](O)[C@@H](NC(=O)c4ccccc4)c4ccccc4)C(C)=C1C3(C)C)[C@]1(OC(C)=O)CO[C@@H]1C[C@@H]2O,CHP-212 parental,"cell viability, SRB",,,IC50,36.1 nM and 26 nM and 43.1 nM
O=C(O)/C=C/c1ccccc1,T47D breast cancer,"cell viability, MTT",DMEM with 10% FBS,48 h,IC50,> 200000 nM

# Excerpt of the above:
SMILES,tested on,assay,test system,setting,endpoint,result
N#Cc1c(Oc2ccc(F)c(NC(=O)Cc3cccc(C(F)(F)F)c3)c2)ccc2nc(NC(=O)C3CC3)sc12,primary keratinocytes,"ERK phosphorylation, inhibitor, Western blot, refers to: p-ERK/total ERK",,1 h,IC50,6760 nM
COc1cccc2c1C(=O)c1c(O)c3c(c(O)c1C2=O)C[C@@](O)(C(=O)CO)C[C@@H]3O[C@H]1C[C@H](N)[C@H](O)[C@H](C)O1,CHP-212 parental,"cell viability, SRB",,mean of 3 runs,IC50,46.7 nM
N#Cc1ccc(C[C@H](Nc2nnc(-c3ccc(Br)cc3)o2)C(=O)N2CCc3ccccc32)cc1,human neutrophils,"calcium mobilization, desensitization",,with: standard agonist,IC50,7400 ± 2500 nM
CC(=O)O[C@H]1C(=O)[C@@]2(C)[C@H]([C@H](OC(=O)c3ccccc3)[C@]3(O)C[C@H](OC(=O)[C@H](O)[C@@H](NC(=O)c4ccccc4)c4ccccc4)C(C)=C1C3(C)C)[C@]1(OC(C)=O)CO[C@@H]1C[C@@H]2O,CHP-212 parental,"cell viability, SRB",,,IC50,36.1 nM and 26 nM and 43.1 nM
